Results from different studies.
Lines come from different studies, so protocols differ.
Matrix: plasma

O=c1c(-c2ccc(Cl)c(CN3CCOCC3)c2)coc2cc(O)ccc12 gave an AUC(0-inf) of 477 ng·h/mL (male Sprague-Dawley rat; oral, 10 mg/kg).
COc1cc(-c2cc(=O)c3ccc(OCCCn4c(Cl)nc5ccccc54)cc3o2)cc(OC)c1OC has an AUC(0-inf) of 192 ng·h/mL (male Sprague-Dawley rat; intravenous, 10 mg/kg).
The AUC(0-t) of CCC(CC)n1c(Cc2ccco2)nc2cc(C(=O)N[C@@H](CC(=O)O)c3ccccc3)ccc21 is reported as 798 ng·h/mL (male Sprague-Dawley rat; intravenous, 1 mg/kg).
Cc1cc2c(cc1O)C=C1C=CC(=O)C(C)(C)[C@H]1CC2 has an AUC(0-inf) of 46.5 ng·h/mL (male Sprague-Dawley rat; oral, 20 mg/kg).
The AUC of CC1(C)C(NC(=O)C(=NOC2(C(=O)O)CCC2)c2csc(N)n2)C(=O)N1OS(=O)(=O)O (stereo not shown) is reported as 16200 ng·h/mL (rat; intravenous, 10 mg/kg, single dose).
The AUC(0-t) of CCCN(C)c1cc(C(F)(F)F)nc(SCCC(=O)NCc2ccco2)n1 is reported as 884 ng·h/mL (male Wistar rat; intraperitoneal, 25 mg/kg, single dose).
OC1(C(F)(F)F)CCN(c2nc(Nc3ccnc(C(F)(F)F)c3)nc(-c3cccc(C(F)(F)F)n3)n2)C1 (stereo not shown) gave an AUC(0-inf) of 17200 ng·h/mL (Sprague-Dawley rat; oral, 10 mg/kg).
COc1cc(C2C3=C(COC3=O)N(CCO)c3cc4c(cc32)CCC4)cc(OC)c1OC (stereo not shown) gave an AUC(0-t) of 2780 ng·h/mL (female Sprague-Dawley rat; intraperitoneal, 50 mg/kg).
The AUC(0-inf) of CCC(CC)n1c(Cc2cccs2)nc2cc(C(=O)N[C@@H](CC(=O)O)c3ccccc3)ccc21 is reported as 3650 ng·h/mL (male Sprague-Dawley rat; intraperitoneal, 10 mg/kg).
COC(=O)C1=CNC=C(C(=O)OC)C1c1ccc(F)c(C(F)(F)F)c1 gave an AUC(0-t) of 832 ng·h/mL (male Sprague-Dawley rat; intravenous, 5 mg/kg).
With COc1cc(OC)c2c(=O)cc(-c3cc(C)c(OCCCN4CCN(C)CC4)c(C)c3)oc2c1 the AUC(0-t) was 4540 ng·h/mL (male Sprague-Dawley rat; intravenous, 10 mg/kg, single dose).
C/C(N)=N/C(=N\S(=O)(=O)c1ccc(C(F)(F)F)cc1)N1C[C@H](c2ccccc2)C(c2ccc(Cl)cc2)=N1 gave an AUC(0-inf) of 6270 ng·h/mL (male Sprague-Dawley rat; intravenous, 3 mg/kg).
Cc1cccc(Cn2ncc3c4cc(F)c(CN(C)C)cc4n(C)c3c2=O)n1 has an AUC(0-inf) of 2900 ng·h/mL (Sprague-Dawley rat; oral, 10 mg/kg).
CN1CCC[C@@H]1C(=O)N[C@@H](Cc1ccc(-c2ccccc2)cc1)B(O)O has an AUC(0-t) of 1.7 µM·h (male Sprague-Dawley rat; intravenous, 1 mg/kg).
O=C(C1CCN(c2nnnn2-c2ccccc2)CC1)N1CCCc2ccccc21 has an AUC(0-t) of 507 ng·h/mL (male Sprague-Dawley rat; intravenous, 1 mg/kg).
With COC1C(c2ccc(Cl)c(Cc3ccc(OC4CCOC4)cc3)c2)OC(CO)C(O)C1O (stereo not shown) the AUC was 8280 ng·h/mL (Sprague-Dawley rat; oral, 5 mg/kg).
